Assay results gathered from unrelated publications.
Each line is one published result; not all experiments were run side by side. ± gives the spread as reported.
CYP3A4: Cytochrome P450 3A4 (CYP3A4, Homo sapiens, UniProt P08684)
Chain of UniProt P08684 (whole entry, looked up): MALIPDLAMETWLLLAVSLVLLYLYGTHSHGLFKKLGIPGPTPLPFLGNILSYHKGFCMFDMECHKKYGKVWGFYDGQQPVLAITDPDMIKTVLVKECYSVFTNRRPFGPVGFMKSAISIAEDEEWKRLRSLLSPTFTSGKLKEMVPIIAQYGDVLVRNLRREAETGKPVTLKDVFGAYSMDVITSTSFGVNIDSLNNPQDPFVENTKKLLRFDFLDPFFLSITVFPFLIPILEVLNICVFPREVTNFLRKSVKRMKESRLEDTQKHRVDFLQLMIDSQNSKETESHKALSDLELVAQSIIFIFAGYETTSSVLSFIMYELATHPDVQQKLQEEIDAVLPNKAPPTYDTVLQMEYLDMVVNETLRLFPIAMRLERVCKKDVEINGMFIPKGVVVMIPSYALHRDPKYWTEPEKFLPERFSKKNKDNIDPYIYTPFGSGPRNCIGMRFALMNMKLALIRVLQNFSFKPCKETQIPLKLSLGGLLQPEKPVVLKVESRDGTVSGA
Chain of UniProt P33260 (whole entry, looked up): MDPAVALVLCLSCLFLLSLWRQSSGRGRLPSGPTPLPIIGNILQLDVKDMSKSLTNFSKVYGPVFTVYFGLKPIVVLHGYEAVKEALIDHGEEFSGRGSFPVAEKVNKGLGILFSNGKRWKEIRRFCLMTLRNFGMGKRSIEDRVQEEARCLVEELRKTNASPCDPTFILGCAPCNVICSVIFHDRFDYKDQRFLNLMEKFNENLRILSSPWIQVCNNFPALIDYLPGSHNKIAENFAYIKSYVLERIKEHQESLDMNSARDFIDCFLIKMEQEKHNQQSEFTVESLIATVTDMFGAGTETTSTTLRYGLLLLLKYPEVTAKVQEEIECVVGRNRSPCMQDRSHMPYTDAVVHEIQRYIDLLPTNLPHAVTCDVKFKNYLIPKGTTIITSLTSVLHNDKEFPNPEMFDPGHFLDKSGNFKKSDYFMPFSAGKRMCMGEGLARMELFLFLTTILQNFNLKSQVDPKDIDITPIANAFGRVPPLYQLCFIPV
Chain of UniProt Q96FL8 (whole entry, looked up): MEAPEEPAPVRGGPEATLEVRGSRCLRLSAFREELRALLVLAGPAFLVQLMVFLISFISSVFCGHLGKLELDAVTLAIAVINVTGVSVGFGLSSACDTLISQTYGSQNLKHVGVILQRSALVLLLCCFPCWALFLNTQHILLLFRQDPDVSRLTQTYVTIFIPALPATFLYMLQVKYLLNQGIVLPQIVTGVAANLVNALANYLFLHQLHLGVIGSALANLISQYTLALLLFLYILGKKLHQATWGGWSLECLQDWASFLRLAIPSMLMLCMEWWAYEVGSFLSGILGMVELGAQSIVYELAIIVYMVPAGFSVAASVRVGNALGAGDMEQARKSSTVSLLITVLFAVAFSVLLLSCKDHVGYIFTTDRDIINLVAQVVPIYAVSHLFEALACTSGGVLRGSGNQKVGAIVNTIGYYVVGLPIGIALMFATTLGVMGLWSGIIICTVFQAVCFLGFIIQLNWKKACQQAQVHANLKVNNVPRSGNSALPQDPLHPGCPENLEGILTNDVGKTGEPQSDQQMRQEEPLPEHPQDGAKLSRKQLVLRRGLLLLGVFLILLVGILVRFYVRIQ
Chain of UniProt P08183 (whole entry, looked up): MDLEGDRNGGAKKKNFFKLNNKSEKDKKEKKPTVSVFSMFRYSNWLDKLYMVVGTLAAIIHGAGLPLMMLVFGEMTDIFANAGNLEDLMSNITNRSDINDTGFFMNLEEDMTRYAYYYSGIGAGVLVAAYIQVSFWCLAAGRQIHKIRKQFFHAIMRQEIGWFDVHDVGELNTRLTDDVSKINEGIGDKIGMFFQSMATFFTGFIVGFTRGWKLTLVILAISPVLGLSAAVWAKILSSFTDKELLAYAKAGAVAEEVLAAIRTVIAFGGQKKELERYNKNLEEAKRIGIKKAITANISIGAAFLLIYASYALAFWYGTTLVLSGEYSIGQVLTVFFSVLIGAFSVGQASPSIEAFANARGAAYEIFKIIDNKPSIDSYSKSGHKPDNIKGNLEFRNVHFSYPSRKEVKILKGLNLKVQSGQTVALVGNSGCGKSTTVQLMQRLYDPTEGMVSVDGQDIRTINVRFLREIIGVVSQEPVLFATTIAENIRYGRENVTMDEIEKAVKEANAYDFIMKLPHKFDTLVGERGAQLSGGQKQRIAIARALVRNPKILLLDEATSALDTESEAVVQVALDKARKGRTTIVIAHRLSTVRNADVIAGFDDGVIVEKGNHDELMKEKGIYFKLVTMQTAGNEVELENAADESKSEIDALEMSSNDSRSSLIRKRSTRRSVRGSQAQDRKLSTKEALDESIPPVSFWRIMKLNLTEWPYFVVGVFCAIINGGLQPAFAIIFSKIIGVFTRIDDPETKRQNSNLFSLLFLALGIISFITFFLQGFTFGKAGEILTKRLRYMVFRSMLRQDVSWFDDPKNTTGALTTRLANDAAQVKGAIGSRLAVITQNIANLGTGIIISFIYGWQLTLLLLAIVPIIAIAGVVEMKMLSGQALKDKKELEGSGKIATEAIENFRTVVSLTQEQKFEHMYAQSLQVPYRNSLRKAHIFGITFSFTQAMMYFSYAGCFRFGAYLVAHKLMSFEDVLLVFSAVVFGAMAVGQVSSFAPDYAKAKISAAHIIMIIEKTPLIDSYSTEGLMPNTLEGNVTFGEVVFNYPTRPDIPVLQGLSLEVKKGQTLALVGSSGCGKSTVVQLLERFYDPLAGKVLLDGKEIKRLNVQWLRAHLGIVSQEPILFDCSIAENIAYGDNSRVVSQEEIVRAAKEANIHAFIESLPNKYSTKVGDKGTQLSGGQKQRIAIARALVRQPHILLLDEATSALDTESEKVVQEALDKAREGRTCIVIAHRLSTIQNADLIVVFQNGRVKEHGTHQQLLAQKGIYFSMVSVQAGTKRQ
Chain of UniProt Q4GZT4 (whole entry, looked up): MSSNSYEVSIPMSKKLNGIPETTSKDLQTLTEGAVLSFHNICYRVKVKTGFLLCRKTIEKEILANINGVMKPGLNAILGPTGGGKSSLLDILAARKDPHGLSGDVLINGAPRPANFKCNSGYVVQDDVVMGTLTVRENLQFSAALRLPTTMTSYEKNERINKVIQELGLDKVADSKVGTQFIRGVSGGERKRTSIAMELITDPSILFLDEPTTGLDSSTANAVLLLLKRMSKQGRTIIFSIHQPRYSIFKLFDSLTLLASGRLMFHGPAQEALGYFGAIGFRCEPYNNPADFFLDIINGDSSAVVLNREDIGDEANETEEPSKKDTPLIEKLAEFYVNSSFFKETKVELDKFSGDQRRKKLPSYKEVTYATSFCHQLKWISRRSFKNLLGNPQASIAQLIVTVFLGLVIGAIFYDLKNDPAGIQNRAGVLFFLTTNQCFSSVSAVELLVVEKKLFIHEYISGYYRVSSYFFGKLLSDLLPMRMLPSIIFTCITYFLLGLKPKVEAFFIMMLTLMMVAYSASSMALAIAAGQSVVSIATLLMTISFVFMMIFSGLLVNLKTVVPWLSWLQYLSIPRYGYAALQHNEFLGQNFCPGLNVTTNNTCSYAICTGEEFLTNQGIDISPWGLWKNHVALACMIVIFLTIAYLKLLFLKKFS
Chain of UniProt P22413 (whole entry, looked up): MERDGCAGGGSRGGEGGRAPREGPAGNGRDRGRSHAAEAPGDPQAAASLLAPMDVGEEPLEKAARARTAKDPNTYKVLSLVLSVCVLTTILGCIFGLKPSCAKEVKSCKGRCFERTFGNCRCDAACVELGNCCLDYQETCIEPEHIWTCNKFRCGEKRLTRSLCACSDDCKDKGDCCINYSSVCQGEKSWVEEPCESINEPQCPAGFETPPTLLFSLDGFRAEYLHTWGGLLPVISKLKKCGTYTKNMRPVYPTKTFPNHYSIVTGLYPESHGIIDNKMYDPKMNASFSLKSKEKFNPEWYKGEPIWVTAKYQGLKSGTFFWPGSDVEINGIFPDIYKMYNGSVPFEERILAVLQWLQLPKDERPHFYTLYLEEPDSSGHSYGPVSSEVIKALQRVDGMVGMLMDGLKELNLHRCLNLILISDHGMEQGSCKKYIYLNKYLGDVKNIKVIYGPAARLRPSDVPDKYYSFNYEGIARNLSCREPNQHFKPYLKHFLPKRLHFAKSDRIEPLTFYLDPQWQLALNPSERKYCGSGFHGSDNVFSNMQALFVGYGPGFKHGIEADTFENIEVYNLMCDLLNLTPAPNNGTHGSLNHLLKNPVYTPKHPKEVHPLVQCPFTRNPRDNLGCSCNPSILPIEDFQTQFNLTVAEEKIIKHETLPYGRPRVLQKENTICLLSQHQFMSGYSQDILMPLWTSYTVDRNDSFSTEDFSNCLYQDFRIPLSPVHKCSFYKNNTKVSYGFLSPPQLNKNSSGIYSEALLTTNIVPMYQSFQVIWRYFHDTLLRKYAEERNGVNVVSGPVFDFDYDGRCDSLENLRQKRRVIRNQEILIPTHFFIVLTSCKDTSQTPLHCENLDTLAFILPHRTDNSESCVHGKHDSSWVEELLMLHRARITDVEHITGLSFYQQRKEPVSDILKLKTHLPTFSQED

COc1ccc(F)cc1C(=O)NCc1ccc(-c2nn([C@@H](C)C(F)(F)F)c(N)c2C(N)=O)cc1
Cmax increase (CYP3A4; human, both sexes, plasma; oral, 200 mg single dose, together with: itraconazole; reference: without itraconazole): 4%

Cc1oc2ccccc2c1Cc1cc(I)c(OCC(=O)O)c(I)c1
inhibition (Voltage-gated inwardly rectifying potassium channel KCNH2 (KCNH2, Homo sapiens, UniProt Q12809, Y652A); hERG current, inhibitor, two-electrode voltage clamp; Xenopus oocytes expressing hERG1 Y652A; 50 µM, almost voltage-independent): 63 ± 4%

COc1cc(O)c(CC=C(C)C)c(O)c1C(=O)/C=C/c1ccc(O)cc1
free serum concentration over IC50 (CYP2C9 and CYP2C8; human): > 100 fold

CC[C@H]1[C@@H](O)[C@@H]2[C@H](CC[C@]3(C)[C@@H]([C@H](C)CCNC(=O)NS(=O)(=O)c4ccc(C(C)(C)C)cc4)CC[C@@H]23)[C@@]2(C)CC[C@@H](O)C[C@@H]12
Tmax median (CYP3A4; substrate; human, plasma; 10 mg, alone, study day 1): 4 h

CN1C[C@@H]2C[C@H]1CN2c1cc2c(cc1F)c(=O)c(C(=O)O)cn2C1CC1
percent transported (Broad substrate specificity ATP-binding cassette transporter ABCG2 (ABCG2, Bos taurus, UniProt Q4GZT4); basolateral-to-apical transport, transepithelial transport; MDCK-II transduced with ABCG2, HBSS with HEPES; 10 µM, 4 h): 37.4 ± 3.32%

CCc1cc(/C(C)=N/OCc2ccc(C3CCCCC3)c(C(F)(F)F)c2)ccc1CN1CC(C(=O)O)C1
maximal inhibition (Multidrug and toxin extrusion protein 1 (SLC47A1, Homo sapiens, UniProt Q96FL8); inhibitor; HEK293 transfected with SLC47A1; up to 40 µM, 2 min, together with: MPP+ 0.025 µM): 3.01%

CC1(C)CCC2(CC1)N[C@@H](C(=O)N[C@@H]1CC[C@@H](C(N)=O)OC1)[C@H](c1ccnc(Cl)c1F)[C@]21C(=O)Nc2cc(Cl)ccc21
Papp A to B (ATP-dependent translocase ABCB1 (ABCB1, Homo sapiens, UniProt P08183); Caco-2 monolayers; 30 µM, 120 min, no inhibitor): 3.66 ×10⁻⁶ cm/s

C=CC(=O)N1CCN(c2nc(=O)n(-c3c(C)ccnc3C(C)C)c3nc(-c4c(O)cccc4F)c(F)cc23)[C@@H](C)C1
half-life (glutathione; reaction with glutathione, HPLC; pH 7.4, 37 °C, together with: 5 mM glutathione): 1 h

C[C@H]1CN(C2COC2)CCN1c1ccc(Nc2cc(-c3ccnc(N4CCn5c(cc6c5CC(C)(C)C6)C4=O)c3CO)cn(C)c2=O)nc1
remaining compound (Cytochrome P450 2C18 (Homo sapiens, UniProt P33260); recombinant enzyme; 1 µM, 60 min; reference: 0 min): 93.9 ± 9.2%

Nc1nc2c(ncn2[C@@H]2O[C@@H]3COP(=O)(O)O[C@H]4[C@@H](O)[C@H](n5cnc6c(N)ncnc65)O[C@@H]4COP(=O)(O)O[C@H]2[C@@H]3O)c(=O)[nH]1
remaining compound (Ectonucleotide pyrophosphatase/phosphodiesterase family member 1 (ENPP1, Homo sapiens, UniProt P22413); substrate; 30 min): 20%

Repeated from above:
Nc1nc2c(ncn2[C@@H]2O[C@@H]3COP(=O)(O)O[C@H]4[C@@H](O)[C@H](n5cnc6c(N)ncnc65)O[C@@H]4COP(=O)(O)O[C@H]2[C@@H]3O)c(=O)[nH]1
remaining compound (Ectonucleotide pyrophosphatase/phosphodiesterase family member 1 (ENPP1, Homo sapiens, UniProt P22413); substrate; 30 min): 20%
